{"data": "Published values from different studies", "note": "Numbered parts are unrelated; each lists some results of a single study. “And” joins repeats or separate records; there may be more than shown."}
{"data": "Block 1", "SMILES": "COc1cc(C(=O)N2CCC(N3CCN(C)CC3)CC2)ccc1Nc1ncc2c(n1)N(C)c1ccccc1C(=O)N2C"}
{"tested on": "MARK1 (mouse)", "assay": "probe labelling, KiNativ ADP probe", "test system": "mouse brain lysate", "conditions": "1 µM, LYS1 labelled site", "inhibition": "1.6%"}
{"tested on": "human PBMC", "assay": "probe labeling, inhibitor, KiNativ profiling, item: ALYATkTLR", "test system": "cell lysate", "conditions": "concentration not given, LYS1 site, together with: ATP acyl-phosphate probe", "inhibition": "-5%"}
{"tested on": "mouse JNK1/JNK2/JNK3", "assay": "probe labelling, KiNativ ADP probe", "test system": "mouse brain lysate", "conditions": "0.1 µM, LYS2 site DLkPSNIVVK", "inhibition": "1.1%"}
{"tested on": "mouse ILK", "assay": "probe labelling, KiNativ ADP probe", "test system": "mouse brain lysate", "conditions": "1 µM, kinase domain ISMADVkFSFQCPGR", "inhibition": "45.7%"}
{"tested on": "OSR1 (mouse)", "assay": "KiNativ ATP probe", "test system": "mouse brain tissue", "conditions": "1 µM, probe site LYS2", "inhibition": "3.7%"}
{"tested on": "MAP3K2 and MAP3K3 (mouse)", "assay": "probe labelling, KiNativ, item: DIkGANILR peptide, LYS2 site", "test system": "brain tissue lysate (mouse)", "conditions": "0.1 µM, together with: ADP acyl-phosphate probe", "inhibition": "0.5%"}
{"tested on": "TRKB (mouse)", "assay": "probe labelling, inhibitor, KiNativ ActivX ATP probe", "test system": "mouse brain lysate", "conditions": "0.1 µM, Lys1 site peptide", "inhibition": "-18.1%"}
{"data": "Block 2", "target": "Muscarinic acetylcholine receptor M5 (CHRM5, Homo sapiens, UniProt P08912)", "read-out": "binding", "method": "radioligand binding", "tested at": "10 µM", "sequence of UniProt P08912 (whole entry, looked up)": "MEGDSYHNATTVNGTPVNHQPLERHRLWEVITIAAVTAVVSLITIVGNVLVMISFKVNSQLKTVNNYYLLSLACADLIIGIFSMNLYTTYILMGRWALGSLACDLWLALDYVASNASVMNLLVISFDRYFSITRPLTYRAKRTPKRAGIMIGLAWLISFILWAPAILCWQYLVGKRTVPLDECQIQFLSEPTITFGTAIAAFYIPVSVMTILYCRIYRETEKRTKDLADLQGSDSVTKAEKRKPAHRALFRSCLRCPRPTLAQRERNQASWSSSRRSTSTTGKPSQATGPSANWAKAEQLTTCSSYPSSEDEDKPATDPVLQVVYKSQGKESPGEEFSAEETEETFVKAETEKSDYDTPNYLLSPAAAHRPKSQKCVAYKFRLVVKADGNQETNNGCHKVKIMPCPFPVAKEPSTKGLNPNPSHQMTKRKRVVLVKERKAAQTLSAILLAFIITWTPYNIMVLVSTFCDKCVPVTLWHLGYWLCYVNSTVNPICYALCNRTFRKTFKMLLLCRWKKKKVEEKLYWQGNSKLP"}
{"Compound": "CCOCCn1cc(C(=O)Nc2ccc(-n3nc(-c4cccnc4)cc3C(F)(F)F)cn2)ccc1=O", "inhibition [%]": -11.2}
{"Compound": "Cc1nc(N2CC[C@@H](O)C2)ncc1-c1cc(C(F)(F)F)cc2[nH]ncc12", "inhibition [%]": 0.643}
{"Compound": "O=C(Nc1cccnn1)N1CCC(=Cc2cccc(Oc3ccc(C(F)(F)F)cn3)c2)CC1", "inhibition [%]": 23.5}
{"Compound": "CN([C@@H]1CCc2c(CC(=O)O)c3cc(S(C)(=O)=O)ccc3n2C1)S(=O)(=O)c1ccc(F)cc1", "inhibition [%]": -6.18}
{"Compound": "O=C1c2ccc(Nc3ccc(F)cc3F)cc2CCc2ccc(OC[C@H](O)CO)cc21", "inhibition [%]": -9.46}
{"Compound": "O[C@]1(C(F)(F)F)CCCC[C@H]1Nc1ccc(F)cc1", "inhibition [%]": 10.4}
{"Compound": "COCCc1ccc(-c2c(C)nc3c(N4CCOCC4)ccnn23)cn1", "inhibition [%]": -1.98}
{"Compound": "CC(=O)Nc1c(F)cc(C(=O)N[C@H]2CC[C@H](O)CC2)cc1O[C@@H](C)c1ccccc1", "inhibition [%]": 0.93}
{"Compound": "COc1cc(-c2cn(C3CCc4ccccc4N(CC(F)(F)F)C3=O)nn2)ccc1-n1ccc(C)n1 (stereo not shown)", "inhibition [%]": 0.39}
{"Compound": "COc1nc2ccc([C@@](O)(c3ccccc3)C3CCN(C(C)=O)CC3)cc2c(Cl)c1Cc1ccc(-n2cccn2)cc1", "inhibition [%]": -16.1}
{"data": "Block 3", "target": "Beta-1 adrenergic receptor (ADRB1, Homo sapiens, UniProt P08588)", "mode": "agonist", "sequence of UniProt P08588 (whole entry, looked up)": "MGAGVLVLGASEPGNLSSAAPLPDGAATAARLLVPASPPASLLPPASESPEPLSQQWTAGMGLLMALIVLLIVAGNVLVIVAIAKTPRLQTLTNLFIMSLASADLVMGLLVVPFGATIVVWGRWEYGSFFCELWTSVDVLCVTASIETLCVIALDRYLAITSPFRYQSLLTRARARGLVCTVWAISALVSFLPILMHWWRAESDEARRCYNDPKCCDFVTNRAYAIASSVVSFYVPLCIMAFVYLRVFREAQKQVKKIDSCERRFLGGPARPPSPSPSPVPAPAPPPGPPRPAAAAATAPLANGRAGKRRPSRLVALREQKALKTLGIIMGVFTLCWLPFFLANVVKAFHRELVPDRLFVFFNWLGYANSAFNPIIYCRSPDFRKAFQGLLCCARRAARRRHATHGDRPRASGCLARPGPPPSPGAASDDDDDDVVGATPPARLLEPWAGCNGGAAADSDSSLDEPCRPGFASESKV"}
{"SMILES": "CN(C)c1ccc(-c2nnnn2[C@H]2CO[C@H]3[C@@H]2OC[C@@H]3N[S+](=O)([O-])c2cccc3cccnc23)cc1", "EC50 [µM]": "≥ 100"}
{"SMILES": "CN1Cc2ccc(N3CCOCC3)nc2C(C)(C(=O)NCCCn2ccnc2)C1 (stereo not shown)", "EC50 [µM]": "≥ 100"}
{"SMILES": "Cc1cc2c(-c3cccc(O)c3)nc(-c3c(C)noc3C)cc2[nH]1", "EC50 [µM]": "≥ 100"}
{"SMILES": "CN(C)c1cccc(-c2nccc3c(=O)cc(-c4cn[nH]c4)oc23)c1", "EC50 [µM]": "≥ 100"}
{"SMILES": "COc1ccc(CNCc2ccc(C)s2)cc1OCC(O)CN1CCCCC1 (stereo not shown)", "EC50 [µM]": "≥ 100"}
{"SMILES": "Cc1noc2c(-c3cccnc3Nc3ccncc3)cc(-c3ccccc3)nc12", "EC50 [µM]": "≥ 100"}
{"SMILES": "CC(C)c1ccc(NC(=O)c2cc3c(nc2O)CC(C)(C)CC3=O)cc1", "EC50 [µM]": "≥ 100"}
{"data": "Block 4", "Compound": "CN(C(=O)c1ccn2ncc(-c3ccc(C(N)=O)cc3)c2c1)c1ccc(C#N)cn1", "organism": "Cryptosporidium parvum", "method": "time-kill", "cells": "HCT-8", "strain": "nanoluciferase-expressing", "reading": "higher = more parasites"}
{"conditions": "6.667 µM, 8 h", "parasite luminescence": "113000 RLU and 115000 RLU"}
{"conditions": "6.667 µM, 4 h", "parasite luminescence": "92200 RLU and 87200 RLU"}
{"conditions": "0.02743 µM, 24 h", "parasite luminescence": "193000 RLU and 194000 RLU"}
{"conditions": "0.02743 µM, 48 h", "parasite luminescence": "202000 RLU and 204000 RLU"}
{"note": "Excerpt of the above (block 3):"}
{"SMILES": "Cc1cc2c(-c3cccc(O)c3)nc(-c3c(C)noc3C)cc2[nH]1", "EC50 [µM]": "≥ 100"}
{"SMILES": "CN1Cc2ccc(N3CCOCC3)nc2C(C)(C(=O)NCCCn2ccnc2)C1 (stereo not shown)", "EC50 [µM]": "≥ 100"}
{"SMILES": "Cc1noc2c(-c3cccnc3Nc3ccncc3)cc(-c3ccccc3)nc12", "EC50 [µM]": "≥ 100"}
